Experimental data gathered from unrelated publications.
Lines come from different studies, so protocols differ. ± gives the spread as reported.

| SMILES | test | test system | conditions | terminal half-life [h] |
| --- | --- | --- | --- | --- |
| Cc1ccc(C(=O)N(CCCN)C(c2nc3snc(C)c3c(=O)n2Cc2ccccc2)C(C)C)cc1 (stereo not shown) | – | human | intravenous, all doses pooled, course day 3 following induction, arithmetic mean | 17.1 |
| C#C[C@]1(CO)O[C@@H](n2cnc3c(N)nc(F)nc32)C[C@@H]1O | – | human, plasma | oral | 50 to 60 |
| Cn1cc(-c2ccc(S(=O)(=O)[C@@H]3C[C@@H](C(=O)NC4(C#N)CC4)N(C(=O)C4(C(F)(F)F)CC4)C3)c(C(F)(F)F)c2)cn1 | noncompartmental | human, both sexes, plasma | oral, 600 mg single dose, fasted | 13.3 |
| CC[C@H](C)[C@H](NC(=O)[C@H](Cc1ccccc1)NC(=O)[C@H](CCC(=O)O)NC(=O)[C@H](CCCCNC(=O)COCCOCCNC(=O)COCCOCCNC(=O)CC[C@H](NC(=O)CCCCCCCCCCCCCCCCC(=O)O)C(=O)O)NC(=O)[C@H](C)NC(=O)[C@H](C)NC(=O)[C@H](CCC(N)=O)NC(=O)CNC(=O)[C@H](CCC(=O)O)NC(=O)[C@H](CC(C)C)NC(=O)[C@H](Cc1ccc(O)cc1)NC(=O)[C@H](CO)NC(=O)[C@H](CO)NC(=O)[C@@H](NC(=O)[C@H](CC(=O)O)NC(=O)[C@H](CO)NC(=O)[C@@H](NC(=O)[C@H](Cc1ccccc1)NC(=O)[C@@H](NC(=O)CNC(=O)[C@H](CCC(=O)O)NC(=O)C(C)(C)NC(=O)[C@@H](N)Cc1cnc[nH]1)[C@@H](C)O)[C@@H](C)O)C(C)C)C(=O)N[C@@H](C)C(=O)N[C@@H](Cc1c[nH]c2ccccc12)C(=O)N[C@@H](CC(C)C)C(=O)N[C@H](C(=O)N[C@@H](CCCNC(=N)N)C(=O)NCC(=O)N[C@@H](CCCNC(=N)N)C(=O)NCC(=O)O)C(C)C | – | human, plasma | oral, 14 mg once daily, harmonic mean | 153 |
| Cc1[nH]c(/C=C2\C(=O)Nc3ccc(F)cc32)c(C)c1C(=O)N[C@H]1CCN(C(=O)N(C)C)C1 | – | human patients, plasma | oral, 200 mg single dose, added: everolimus 5 mg | 12.9 ± 7.5 |
| C[C@@]1(c2cc(NC(=O)c3ccc(C#N)cn3)ccc2F)C=CSC(N)=N1 | – | elderly humans, both sexes, plasma | oral, 150 mg single dose, mean | 15.1 |
| Nc1nc2cc(-c3ccc4ncc(C(=O)N5CCOCC5)n4c3)ccc2o1 | – | human, plasma | oral | 6 to 14 |
| CN(CC#N)C(=O)C[C@H](Nc1nc2ccccc2[nH]1)c1cccc(C(F)(F)F)c1 | – | human | intravenous infusion, 4 mg/kg, 1 mg/mL formulation | 3.99 ± 0.95 |
| COc1nnc2ccc(N3CCC(c4ccc(OCCN5CCN(C)C(=O)[C@H]5C)cc4)CC3)nn12 | – | human, plasma | oral, 10 mg once daily, multiple dose, monotherapy | 5.19 |
| CN1C(=O)[C@@H](NC(=O)c2nnc(Cc3ccccc3)[nH]2)COc2cccnc21 | – | human, plasma | oral, 50 mg once daily, day 14, geometric mean | 6.3 |
| CCCn1cc(C)c2c(=O)[nH]c(-c3cc(S(=O)(=O)N4CCN(CC)CC4)ccc3OCC)nc21 | LC-MS/MS | human, plasma | dose not given, mean, crossover trial | 4.6 |
| CCN1CCN(Cc2ccc(Nc3ncc(F)c(-c4cc(F)c5nc6n(c5c4)[C@H](C)CCC6)n3)nc2)CC1 | – | human, phase Ia | 50 to 500 mg, single dose | 35.9 to 51.1 |
| C#C[C@]1(O)CC[C@H]2[C@@H]3CCc4cc(O)ccc4[C@H]3CC[C@@]21C | – | human female | single dose oral contraceptive, cpd alone | 19 ± 3 |
| Cc1cc(Nc2ccc(S(F)(F)(F)(F)F)cc2)n2nc(C(C)(F)F)nc2n1 | LC-MS/MS | human vivax malaria patients, plasma | oral, 600 mg, mean | 91.3 |
| COC(=O)c1ccc2c(c1)NC(=O)/C2=C(\Nc1ccc(N(C)C(=O)CN2CCN(C)CC2)cc1)c1ccccc1 | – | healthy human | oral, 150 mg single, alone | 13.1 |
| Cc1cc(-c2nccc3c2ccn3CC(=O)Nc2ccc(-c3cnccn3)cn2)ccn1 | – | human, plasma | oral, 40 mg single dose, geometric mean | 11.4 |
| CC(=O)N(C)[C@H]1CCN(C(=O)c2cnc3c(c2)C[C@](C)(c2ccc(F)cc2)N3)C1 | – | human, male, plasma | oral, dose not given, single and multiple doses | ~24 |
| Cc1nc2ccc(F)cc2n1-c1nc(N)c(F)c(Nc2ccc(C(F)(F)F)cc2)n1 | – | human patients, plasma | 200 to 400 mg, monophasic decline | ~9.5 |
| CC1(C)CC[C@]2(NC(=O)C(C)(F)F)CC[C@]3(C)[C@H](C(=O)C=C4[C@@]5(C)C=C(C#N)C(=O)C(C)(C)[C@@H]5CC[C@]43C)[C@@H]2C1 | – | human, plasma | oral, 150 mg single dose, alone, geometric mean | 66.7 |
| C[C@@H](c1ccc2nccn2c1)n1nnc2ncc(-c3cnn(C)c3)nc21 | noncompartmental analysis | human, plasma | oral, dose not given, cycle 2 day 1, multiple dosing | 3.32 |
| C=CC(=O)N1C[C@H](Nc2ncnc3[nH]ccc23)CC[C@@H]1C | – | human, plasma | oral, 50 mg single dose, alone without rifampicin | 1.2 ± 0.2 |
| Cc1cc(-c2nnc(N)nc2-c2ccc(F)cc2)cc(Cl)n1 | – | human patients, plasma | oral, 100 mg nanosuspension once daily, multiple doses, arithmetic mean | 7.8 |

For quick reference, copied from above:
| SMILES | test | test system | conditions | terminal half-life [h] |
| --- | --- | --- | --- | --- |
| Nc1nc2cc(-c3ccc4ncc(C(=O)N5CCOCC5)n4c3)ccc2o1 | – | human, plasma | oral | 6 to 14 |
| Cc1cc(-c2nccc3c2ccn3CC(=O)Nc2ccc(-c3cnccn3)cn2)ccn1 | – | human, plasma | oral, 40 mg single dose, geometric mean | 11.4 |
| Cc1ccc(C(=O)N(CCCN)C(c2nc3snc(C)c3c(=O)n2Cc2ccccc2)C(C)C)cc1 (stereo not shown) | – | human | intravenous, all doses pooled, course day 3 following induction, arithmetic mean | 17.1 |
